# Results from different studies.
# Compare with care: the assays were run in different laboratories. ± marks the error that the study gave.
# Urease: Urease (Canavalia ensiformis, UniProt P07374)
# SNCA pre-formed fibrils: Alpha-synuclein, pre-formed fibrils (SNCA, Homo sapiens, UniProt P37840)
# crk3 with CYC6: crk3, with CYC6 (Leishmania mexicana, UniProt O15851)
# PDE1C: Dual specificity calcium/calmodulin-dependent 3',5'-cyclic nucleotide phosphodiesterase 1C (PDE1C, Homo sapiens, UniProt Q14123)
# SYK tandem SH2 domains: Tyrosine-protein kinase SYK, tandem SH2 domains (SYK, Homo sapiens, UniProt P43405)
target,test,system,conditions,IC50 [µM],SMILES
"S1PR1 (Homo sapiens, UniProt P21453)","ligand displacement, radioligand",,cell membranes,> 1,C[C@@H](C(=O)O)n1nc(Cn2cc3cc(OCCF)c(Cl)cc3n2)c2ccccc2c1=O
"Proteasome subunit beta type-10 (Homo sapiens, UniProt P40306)","inhibitor, biochemical",,,0.287,COC1CCC(C[C@H](NC(=O)[C@H](CC(C)C)NC(=O)[C@H](Cc2ccc(CN)cc2)NC(=O)[C@H](Cc2ccccc2)N=[N+]=[N-])C(=O)[C@@]2(C)CO2)CC1 (some centres unmarked)
Urease,"enzyme activity, inhibitor",,,> 27,CN(C)c1ccc(-c2cc(CN3c4ccccc4C=Cc4ccccc43)on2)cc1Cl
"CD22 (Homo sapiens, UniProt P20273)","ligand binding, inhibitor, competitive bead binding flow cytometry",,with: 6'SLN(Gc)-PAA-biotin beads,0.38 ± 0.02,CC(=O)N[C@H]1[C@H]([C@H](O)[C@H](O)CNC(=O)c2ccc(-c3ccccc3)cc2)O[C@@](OCc2cn(CC(O)Cn3c([N+](=O)[O-])cnc3C)nn2)(C(=O)O)C[C@@H]1O (some centres unmarked)
"Chromobox protein homolog 7 (Homo sapiens, UniProt O95931)","ligand displacement, TR-FRET",,,> 30,CC(C)[C@H](NC(=O)[C@H](Cc1ccccc1)NC(=O)c1ccc(C(C)(C)C)cc1)C(=O)N[C@@H](Cc1c[nH]cn1)C(=O)N[C@@H](CCCCN(C)C1CC2CCC1C2)C(=O)N[C@@H](CO)C(N)=O (some centres unmarked)
"PTK2B (Homo sapiens, UniProt Q14289)","enzyme activity, inhibitor",,,> 10,Cc1nn(-c2cccc(N)c2)c(=O)c2cnc(Nc3ccc(N4CCNCC4)cc3)nc12
"MAPK8 (Homo sapiens, UniProt P45983)",,,,> 3,COc1c(Cl)cccc1Nc1c(-c2ccncc2C#C[C@@]2(C)CCCN2C(=O)/C=C/CN(C)C)[nH]c2c1C(=O)NCC2
SNCA pre-formed fibrils,"binding to RAGE, inhibitor, ELISA",,with: FLAG-α-syn PFFs 100 nM,1.04,CN1CCN(c2cccc3cc(NC(=O)Nc4cccc(C(=O)NO)c4)ccc23)CC1
crk3 with CYC6,"enzyme activity, inhibitor, radiometric",,"with: Leishmania major CYC6 cyclin, 1 µM ATP",0.54,c1cncc(-c2cnn3ccc(Nc4ccc(N5CCOCC5)cc4)nc23)c1
Urease,"enzyme activity, inhibitor, absorbance",,pH 7.3,> 512,COc1cc(OC)c(/N=N/c2ccc(C(=O)NO)c(C(F)(F)F)c2)c(OC)c1
PDE1C,"enzyme activity, inhibitor, radiometric",,,0.0009,CC(C)(C)n1ncc2c(=O)n(Cc3cccc(F)c3)c(NCc3cc(Cl)ccn3)nc21
"CA1 (Homo sapiens, UniProt P00915)","enzyme activity, inhibitor, absorbance",,,2,CC[C@H](C)[C@H](N)C(=O)NS(=O)(=O)CC(=O)N[C@]1(C(=O)O)[C@@H]2CN(C)C=C(C(N)=O)[C@@H]2C[C@@H]1O
crk3 with CYC6,"enzyme activity, inhibitor, radiometric",,"with: Leishmania major CYC6 cyclin, 1 µM ATP",9,CC(=O)Nc1cc(-c2c(F)cccc2F)[nH]n1
Urease,"enzyme activity, inhibitor",,,> 27,C1=Cc2ccccc2N(Cc2cc(-c3ccccc3)no2)c2ccccc21
"KDR (Homo sapiens, UniProt P35968)","enzyme activity, inhibitor, ATP luminescence",,,4.06,O=[N+]([O-])c1ccc(O)c(/C=N/Nc2ccccc2)c1
"Potassium voltage-gated channel subfamily KQT member 1, with KCNE1 (KCNQ1, Homo sapiens, UniProt P51787)","IKs current, inhibitor, automated patch clamp",HEK293,,> 30,CCC1(CC)CC(=O)N(C2c3cc(C(=O)NC4c5ccccc5CC4O)ccc3OC2(C)COC)C(=N)N1 (centres unmarked)
"Bromodomain-containing protein 2, BD1 (BRD2, Homo sapiens, UniProt P25440)","cell-free assay, TR-FRET",,,1.28,COc1cc(OC)c2c(=O)cc(-c3cc(C)c(OCCCN4CCN(C)CC4)c(C)c3)oc2c1
SYK tandem SH2 domains,"binding, inhibitor, TR-FRET",,with: FITC-FCER1G phospho-ITAM peptide,> 100,CC(C)n1c(N)nc2c1c(=O)[nH]c(=O)n2C
"MAL12 (Saccharomyces cerevisiae S288c, UniProt P53341)","enzyme activity, inhibitor",,,28.8,CC(C)(COC(=O)/C=C/c1ccc2c(c1)OCO2)CC1=C(O)C(=O)c2ccccc2C1=O
"QPCT (Homo sapiens, UniProt Q16769)",,,,1.31,Cc1cncn1Cc1ccc(-c2cccc(Br)c2)cc1
"MAP4K4 (Homo sapiens, UniProt O95819)","enzyme activity, inhibitor",,,> 10,CCN(CC)CC(=O)Nc1cccc(-n2cc(-c3ccc4ccc(-c5cn(-c6cccc(NC(=O)CN(CC)CC)c6)nn5)cc4c3)nn2)c1
"STING1 (Homo sapiens, UniProt Q86WV6, H232R)",reporter gene,,,1.5,C#Cc1ccc2nc([C@H](CCNC(=N)c3ccc([N+](=O)[O-])o3)NC(=O)c3noc(-c4cc(F)ccc4F)n3)[nH]c2c1
"ALOX15 (Homo sapiens, UniProt P16050)","enzyme activity, inhibitor, absorbance",,,> 100,C=C(C)C(=O)N(c1ccc(Cl)nc1Cl)C(C(=O)NCCCOc1ccc2c(-c3ccccc3C(=O)OCC)c3ccc(=O)cc-3oc2c1)c1ccc(OC(C)=O)cc1 (centres unmarked)
"ATM (Homo sapiens, UniProt Q13315)","enzyme activity, inhibitor, radiometric",,,> 10,CC(=O)N1c2ccc(-c3ccc(CNC(=O)c4cn5cc(-c6cnc(N)nc6)nc(N6CCOCC6)c5n4)cc3)cc2CC[C@@H]1C
Urease,"enzyme activity, inhibitor",,,3.67,CCOc1ccc(-c2cc(CN3c4ccccc4C=Cc4ccccc43)on2)cc1
PDE1C,"enzyme activity, inhibitor, radiometric",,,0.118,CN1CCC(CNc2nc3c(cnn3C(C)(C)C)c(=O)n2Cc2cccc(F)c2)CC1
"XDH (Bos taurus, UniProt P80457)","enzyme activity, inhibitor",,,159 ± 3.54,Cc1nc2ccc(Br)cc2c(=O)n1N
"PTGS1 (Ovis aries, UniProt P05979)","enzyme activity, inhibitor",,,0.46,COc1cc(NC(=O)c2cnn(-c3ccc([N+](=O)[O-])cc3)c2C(F)(F)F)c(OC)cc1Cl
rat intestinal maltase,inhibitor,rat intestinal acetone powder,"10 min, 37 °C, with: maltose 10 mM",1560 ± 180,COc1cc(O)cc2c1C1(CCC(=O)CC1)CC2
"Histone-lysine N-methyltransferase EZH2, PRC2 pentameric complex (EZH2, Homo sapiens, UniProt Q15910)","enzyme activity, inhibitor",,with: H3K27me3 activating peptide,0.00011,CSc1cc(C)[nH]c(=O)c1CNC(=O)c1c(C)n(C(C)C2CCC(NC3(C)COC3)CC2)c2ccccc12 (centres unmarked)
"DNA polymerase catalytic subunit (Human cytomegalovirus, UniProt P08546)",enzyme activity,,at least duplicate,0.33,CC1(F)CN(C(=O)Cn2c(=O)c(C(=O)NCc3ccc(Cl)cc3)cc3nc(N4CCN(CCN)C4=O)cnc32)C1
SNCA pre-formed fibrils,"binding to RAGE, inhibitor, ELISA",,with: FLAG-α-syn PFFs 100 nM,1.58,CN1CCC(n2cc(-c3ccc4cc(NC(=O)Nc5cccc(C(=O)NO)c5)ccc4c3)cn2)CC1
"SLC22A12 (Homo sapiens, UniProt Q96S37)","transporter uptake, inhibitor, radiometric",,,3.81,O=C(NS(=O)(=O)c1cccs1)c1cc2ccccc2n1Cc1ccc(Br)c2ccccc12
SYK tandem SH2 domains,"binding, inhibitor, TR-FRET",,with: FITC-FCER1G phospho-ITAM peptide,3.57 ± 0.2,Cn1c(=O)c2c(nc(S)n2C)n(C)c1=O
"PFKL (Homo sapiens, UniProt P17858)","probe labelling, competitive gel-based ABPP",HEK293T,,0.141,O=S(=O)(c1ccc2c(c1)OCO2)n1cc(CCCCN2CCC(=C(c3ccc(F)c(F)c3)c3ccc(F)c(F)c3)CC2)nn1

# A few entries again:
target,test,system,conditions,IC50 [µM],SMILES
"S1PR1 (Homo sapiens, UniProt P21453)","ligand displacement, radioligand",,cell membranes,> 1,C[C@@H](C(=O)O)n1nc(Cn2cc3cc(OCCF)c(Cl)cc3n2)c2ccccc2c1=O
"Proteasome subunit beta type-10 (Homo sapiens, UniProt P40306)","inhibitor, biochemical",,,0.287,COC1CCC(C[C@H](NC(=O)[C@H](CC(C)C)NC(=O)[C@H](Cc2ccc(CN)cc2)NC(=O)[C@H](Cc2ccccc2)N=[N+]=[N-])C(=O)[C@@]2(C)CO2)CC1 (some centres unmarked)
Urease,"enzyme activity, inhibitor",,,> 27,CN(C)c1ccc(-c2cc(CN3c4ccccc4C=Cc4ccccc43)on2)cc1Cl
"CD22 (Homo sapiens, UniProt P20273)","ligand binding, inhibitor, competitive bead binding flow cytometry",,with: 6'SLN(Gc)-PAA-biotin beads,0.38 ± 0.02,CC(=O)N[C@H]1[C@H]([C@H](O)[C@H](O)CNC(=O)c2ccc(-c3ccccc3)cc2)O[C@@](OCc2cn(CC(O)Cn3c([N+](=O)[O-])cnc3C)nn2)(C(=O)O)C[C@@H]1O (some centres unmarked)
